Experimental data from different studies.
Each numbered part is a random draw from the data of one study; scales do not carry over between parts. Positions count from the first letter of the parent shown.

Study 1
Target: Prothrombin, mature alpha-thrombin (F2, Homo sapiens, UniProt P00734)
Technique: aptamer microarray, sandwich
Form: DNA with 2'F-ANA
Matrix: in vitro
Concentration: 200 nM
Notes: whole 15-mer aptamer, many near background
Together with: Cy3 exosite-II aptamer, 400 nM
Reading: higher = stronger binding
Quantity: mean fluorescence intensity
Strand: GGTTGGTGTGGTTGG
2'F-ANA at 1 2 3 4 5 6 7 9 10 12 15: 89.9 a.u.
2'F-ANA at 1 2 4 5 6 7 8 14 15: 49 a.u.
2'F-ANA at 5 6 10 13 14: 42.2 a.u.
2'F-ANA at 2 4 7 9 10 11: 208 a.u.
2'F-ANA at 1 3 4 5 6 8 11 12 13 14 15: 63.7 a.u.
2'F-ANA at 1 3 5 6 8 10 15: 44.3 a.u.
2'F-ANA at 3 4 5 7 8 9 13 14 15: 57.1 a.u.
2'F-ANA at 1 3 4 13 15: 153 a.u.

Study 2
Target: RING finger protein unkempt homolog, zinc fingers 1-6, GST-SBP tag (UNK, Homo sapiens, UniProt Q9C0B0, residues 30-357)
Technique: RNA Bind-n-Seq
Form: RNA
Matrix: in vitro
Concentration: not given
Notes: RNA with constant flanks, ends assumed
Baseline: input RNA pool
Reading: higher = stronger binding
Quantity: bound/input enrichment
Shared flanks, not repeated: GGGAGUUCUACAGUCCGACGAUC … CAACAGAGGAUUGAGCAUCA
Construct (chain): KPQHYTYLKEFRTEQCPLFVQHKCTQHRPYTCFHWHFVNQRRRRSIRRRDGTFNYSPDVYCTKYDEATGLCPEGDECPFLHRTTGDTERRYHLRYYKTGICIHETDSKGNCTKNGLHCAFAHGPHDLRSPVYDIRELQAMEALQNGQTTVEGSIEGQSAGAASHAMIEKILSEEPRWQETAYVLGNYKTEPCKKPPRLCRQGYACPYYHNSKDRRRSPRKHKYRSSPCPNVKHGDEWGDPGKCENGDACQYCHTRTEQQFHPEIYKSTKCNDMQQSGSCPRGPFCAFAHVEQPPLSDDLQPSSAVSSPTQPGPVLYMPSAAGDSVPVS
CAGCCGCUCCUGGUAUCAGAGCUGCUUUCCAGAGGGCAGCACAGCCAGGGCCGGGUGUCUUCCGGGAUCAGUUUUUCCAAGACUCCAGAAGGUGCCAGGUUCUCCCCUUGAGCUCCUGCU: 0.0519 ratio
GCAUUUAUCUUUUUUCCUAGUUUUUCUAAUACUAAUGUUAUUUCUUAAAAUUCAGUGAGAUACCGGAUAAAAUAAUGCUUUGAGAAGAAUGUUUAAUAGAAAAUUAAAAUAACUUUUUCU: 2.33 ratio
GUUGUUCUUGUAGUGUUUGUUGCUAUUGUUAGAAAGAUUAUUAGUGAUAUGUGGGGUGUCUCCGCUAAACAACAGACACAUGUAAGAAAACACCAGUUUGAUCAUGGAGAGCUGGUUUAC: 7.4 ratio
GUUUACAUCUUUGGUGAUGGACGAGGCCUUAUUGAAGGAAAUGACAUUUAUGGCAAUGCAUCCGCAGGAAUUCAAAUUAGGACAAACAGUUGUCCAAUUGUUCGGCAUAACAAAAUUCAU: 0.204 ratio
AUAACAUUACACGAAAUGGCAGAAACAGAUGAAGGAUGGUUGGAUGUUGUCCAGUCUUUAAUCCGAGUUAUUCCACUGGAAGAUCCACUGGGACCAGCUGUUAUAACAUUGUUACUAGAU: 0.129 ratio
UUACAUUUAGGGUUUAUCAGAGCUUAAACUACUCUUAAAUUAUUUUCUAAACCUGCCGUACAAUGUAUCAUUGUAACUUCAACCAUUUUAUCCAAAGUAAACACCCAGCAAAAACAUAGU: 1.98 ratio
CUAAGCUCAGCUAAUGGAAGAAGAGUCUAGUUUCUUUGAGGCUUUGAUUUUGGUUAAACUACCGAGCUCAUACCUUUCUGUAUGGUGCAGCUUACUAUUGUCUUUGGAUUGGUAACUUAA: 0.0433 ratio
CAGGAGUGUGGGGAGUGCUUUGCUCAUAGCUCUGACCUCACUGAGCACCAGAAGAUUCAUGACCGGGAGAAGCCCUCUGGAAGCAGAAACUAUGAAUGGUCUGUCAUUCGCAGCUUGGCC: 0.0885 ratio

Study 3
Target: RNA binding protein fox-1 homolog 2, RRM domain, GST-SBP tag (RBFOX2, Homo sapiens, UniProt O43251-10, residues 100-194)
Technique: RNA Bind-n-Seq
Form: RNA
Matrix: in vitro
Concentration: 365 nM
Notes: natural RNA segment, single round, ends assumed
Baseline: no-protein control
Reading: higher = stronger binding
Quantity: RBNS enrichment (R)
Shared flanks, not repeated: GGGAGUUCUACAGUCCGACGAUC … UGGAAUUCUCGGGUGCCAA
Target sequence (chain): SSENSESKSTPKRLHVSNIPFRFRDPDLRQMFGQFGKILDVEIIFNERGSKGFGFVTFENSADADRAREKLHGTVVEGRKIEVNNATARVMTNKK
UCCCAGCUAUGGCUUUGGACAACGUGGCUUCGGCCCCUGGGGUUGCAGAGCUUGCAUUGGGUUUACCUCGGUCUCAUUCAUUCAUGGAGCCAAGGGUGGGGUUUCACCUG: 0.329
CUCACCUCCACCCCCUCCUGUCACCGGCCUUGUGACAUUCACUCAGAGAAGACCACACCAAGGAGGCGGCCGCUGGCCCAGGAGAGAACACGGGGAGGUUUGUUUGUGUG: 0.465
UCCUUUGAAAAUCCAAUAGAAGGUUAAUAGUAUUCACACACAGGUCUAGGCAGGGUUUUAAACAUAUUCCCCAUCAGUUUUUAGGUUAACAUAUACUUGCUAUAGCUAAU: 0.554
UUGUCCAGUAAUAAAAUAUAGAACCUUUCAAAAUGCUUUUCUGGUUUAUAAAGUACUGAAUUGCCCUAUAAGACCCGAUAAGGCUUCUUCUGUGGGGUAAAAUAUUGUUU: 0.514
GCAUCUCUAGAGACAGAUACUAUCCAGCCAUCUGUCUGCCUUGUCUUUUGCAGUACUUCUCCAUGCCUUCCCUGCUACAAGUGUUUUUAGAUGUUAUUACUGUACUUUCC: 1.04
GACUUGUUGGGUGUGAAGAUAAAUGCAUGUAAGAGCAGCCCUUUGGAGGCUGAGGCAGGAGAAUCUCAAGUUCAGGGCCAGCCUGGGCCACAUACUGAUACCCUGUCUCU: 20.6
GGGGAGGAGGAGCUGAGUCCUGACUCUGUGCUCCUGUUAGGCAGGGCCUCUGGGAAGAGGAGAAAUGUAGCCUGAGCUGGGGCUGGAGGCUGGUCACCGCAUAUCCUUGC: 0.699
UCCACGAUAAGAAAAACAACCCCACCAAUCAGAUAGCGGAGCCUGUUAUUUGAAGCUGCAGAGCCACACCCUUGGCCUAACCCCUAGCAGACUGAGGCUCUCCCAUGCCU: 0.387

Other studies, line by line
Starting sequence: PafA, mature enzyme, eGFP fusion (Elizabethkingia meningoseptica, UniProt Q9KJX5); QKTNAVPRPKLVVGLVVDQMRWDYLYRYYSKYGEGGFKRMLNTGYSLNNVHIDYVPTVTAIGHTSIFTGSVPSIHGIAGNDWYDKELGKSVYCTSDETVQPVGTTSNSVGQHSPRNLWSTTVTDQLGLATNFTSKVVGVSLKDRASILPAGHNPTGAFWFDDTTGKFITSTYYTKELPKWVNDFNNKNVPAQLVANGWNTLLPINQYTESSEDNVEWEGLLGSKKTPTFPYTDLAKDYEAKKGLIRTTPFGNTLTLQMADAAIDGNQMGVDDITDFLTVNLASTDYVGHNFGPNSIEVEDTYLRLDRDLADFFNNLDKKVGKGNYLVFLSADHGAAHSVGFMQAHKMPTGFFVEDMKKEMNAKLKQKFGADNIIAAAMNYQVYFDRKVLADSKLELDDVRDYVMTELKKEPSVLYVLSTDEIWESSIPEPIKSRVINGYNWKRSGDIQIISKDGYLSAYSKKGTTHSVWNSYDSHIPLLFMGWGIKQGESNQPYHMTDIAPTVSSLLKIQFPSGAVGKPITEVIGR
I374G  phosphate dissociation constant (inorganic phosphate, free oxyanion; microfluidic competitive inhibition; in vitro, cell-free expressed; not given, derived from inhibition constants, unchanged parent 615000 nM; lower = stronger binding): 566 µM

Some of these lines once more (study 2):
AUAACAUUACACGAAAUGGCAGAAACAGAUGAAGGAUGGUUGGAUGUUGUCCAGUCUUUAAUCCGAGUUAUUCCACUGGAAGAUCCACUGGGACCAGCUGUUAUAACAUUGUUACUAGAU: 0.129 ratio
GUUGUUCUUGUAGUGUUUGUUGCUAUUGUUAGAAAGAUUAUUAGUGAUAUGUGGGGUGUCUCCGCUAAACAACAGACACAUGUAAGAAAACACCAGUUUGAUCAUGGAGAGCUGGUUUAC: 7.4 ratio
